Measured values gathered from unrelated publications.
Compare with care: the assays were run in different laboratories. “And” joins repeats or separate records; there may be more than shown. ± marks the error that the study gave.
Ubiquitin carboxyl-terminal hydrolase 39 ZnF-UBD domain: Ubiquitin carboxyl-terminal hydrolase 39, ZnF-UBD domain (Homo sapiens, UniProt Q53GS9)
UniProt Q53GS9, sequence (whole entry, looked up): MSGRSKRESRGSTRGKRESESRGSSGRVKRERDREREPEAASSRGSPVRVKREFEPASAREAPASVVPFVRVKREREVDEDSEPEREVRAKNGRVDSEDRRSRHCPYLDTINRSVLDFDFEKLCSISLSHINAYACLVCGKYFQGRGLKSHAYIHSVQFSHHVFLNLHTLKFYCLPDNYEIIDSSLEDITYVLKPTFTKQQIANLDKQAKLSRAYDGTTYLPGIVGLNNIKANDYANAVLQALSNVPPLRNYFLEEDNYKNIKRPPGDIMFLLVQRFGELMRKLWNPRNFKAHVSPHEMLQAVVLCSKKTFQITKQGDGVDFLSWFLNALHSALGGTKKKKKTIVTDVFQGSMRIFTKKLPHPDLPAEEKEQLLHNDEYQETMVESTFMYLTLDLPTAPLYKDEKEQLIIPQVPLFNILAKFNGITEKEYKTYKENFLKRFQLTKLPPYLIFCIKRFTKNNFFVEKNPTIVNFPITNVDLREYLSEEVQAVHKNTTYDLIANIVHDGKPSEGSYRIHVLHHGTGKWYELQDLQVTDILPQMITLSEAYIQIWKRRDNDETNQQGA

For `Cc1c(-c2ccc(N3CCc4cccc(C(=O)Nc5nc6ccccc6s5)c4C3)nc2C(=O)O)cnn1CC12CC3(C)CC(C)(C1)CC(OCCNCC[C@H](O)CO)(C3)C2`, the plasma concentration was under 2 ng/mL (anaesthetized male beagle dog; iv infusion, 0.01 mg/kg/min, 75 min).
For `C[C@H]1O[C@@H](O[C@H]2CC[C@@]3(C)[C@@H](CC[C@]4(C)[C@@H]3C=C[C@]35OC[C@@]6(CCC(C)(C)C[C@H]63)[C@@H](O)C[C@]54C)[C@]2(C)CO)[C@H](O)[C@@H](O[C@@H]2O[C@H](CO)[C@@H](O)[C@H](O)[C@H]2O)[C@H]1O`, the plasma concentration was 1.03 ng/mL (UHPLC-MS/MS; mouse, plasma; oral, 50 mg/kg, 4 h).
For `CC(=O)N(C)C1CCN(c2cc(F)cc(NC(=O)c3cc4c(F)ccc(C)c4[nH]3)c2)C1` (stereo not drawn), the plasma concentration was 6.27 ng/mL (CD1 mouse, plasma; intravenous, 1 mg/kg, 4 h).
The plasma concentration of `Cn1cc([C@H]2C[C@H]3CSC(N)=N[C@@]3(c3ccc(F)cc3F)CO2)cn1` is reported as 25 nM (male 129/SVE mouse, plasma; subcutaneous, 50 mg/kg, 18 h).
`NC(CCCC(=O)O)C(=O)O` (stereo not drawn): “z-scored log2 fold change” 0.21 (binding, equilibrium dialysis LC-MS; 5 µM, thermostabilized A2AR-BRIL construct; reference: no-protein control, direction not given).
For `C[C@@H]1CCO[C@H]2Cn3cc(C(=O)NCc4ccc(F)cc4F)c(=O)c(O)c3C(=O)N12`, the plasma concentration was 495 ng/mL (population PK, post-hoc; children, 25 to <30 kg, plasma; oral, 25 mg film-coated tablet, 24 h, steady state, geometric mean).
`O=Cc1cc2c(cc1F)C(=O)N(C1CCC(=O)NC1=O)C2` (stereo not drawn): plasma concentration “not detected” (CD-1 mice; intravenous, 1 mg/kg, 4 h).
For `O=P(O)(O)O[C@H]1O[C@H](CO)[C@@H](O)[C@H](O)[C@H]1O`, “z-scored log2 fold change” read 0.126 (binding, equilibrium dialysis LC-MS; 5 µM, thermostabilized A2AR-BRIL construct; reference: no-protein control, direction not given).
The Kd of `O=C(O)CCn1cccn1` is reported as over 1000 µM (Ubiquitin carboxyl-terminal hydrolase 39 ZnF-UBD domain).
`Cc1cc2sc(N)nc2c2cccnc12` has a plasma concentration of 1410 ± 160 ng/mL (LC-MS; BALB/c mice, female; intraperitoneal, 30 mg/kg, 0.5 h).
The Kd of `O=C(O)CCc1cn2cccnc2n1` is reported as over 1000 µM (Ubiquitin carboxyl-terminal hydrolase 39 ZnF-UBD domain).
With `CCN1CCN(Cc2ccc(NC(=O)c3ccc(C)c(NC(=O)c4cncc(-c5cccs5)c4)c3)cc2C(F)(F)F)CC1` the plasma concentration was 225 ng/mL and 564 ng/mL and 258 ng/mL (LC-MS/MS; C57BL/6 mouse, plasma; intraperitoneal, 30 mg/kg single dose, 4 h).

Some of these lines once more:
`O=Cc1cc2c(cc1F)C(=O)N(C1CCC(=O)NC1=O)C2` (stereo not drawn): plasma concentration “not detected” (CD-1 mice; intravenous, 1 mg/kg, 4 h).
